Results gathered from unrelated publications.
A part holds a random share of what one study measured. Values joined by “and” are separate records of one study, mostly repeats; a detail may differ.

Study 1
Target: Interferon regulatory factor 7, full length, phosphomimetic (IRF7, Homo sapiens, UniProt Q92985, residues 1-503, S471D/S472D/S475D/S476D/S477D/S483D/S484D/S487D)
UniProt Q92985, sequence (whole entry, unmodified, looked up): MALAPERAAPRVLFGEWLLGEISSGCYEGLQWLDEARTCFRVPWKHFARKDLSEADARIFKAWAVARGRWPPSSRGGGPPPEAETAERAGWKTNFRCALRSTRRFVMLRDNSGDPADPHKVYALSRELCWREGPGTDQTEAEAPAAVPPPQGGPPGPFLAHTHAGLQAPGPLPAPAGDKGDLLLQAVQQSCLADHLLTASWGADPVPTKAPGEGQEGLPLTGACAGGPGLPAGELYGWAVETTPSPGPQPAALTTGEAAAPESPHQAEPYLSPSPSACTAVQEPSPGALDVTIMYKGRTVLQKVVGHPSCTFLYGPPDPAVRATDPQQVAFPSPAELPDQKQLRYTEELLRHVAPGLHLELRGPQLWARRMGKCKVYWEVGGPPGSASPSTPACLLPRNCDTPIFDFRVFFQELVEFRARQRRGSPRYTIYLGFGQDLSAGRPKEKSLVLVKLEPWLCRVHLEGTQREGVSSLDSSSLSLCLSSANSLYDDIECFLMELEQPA
Technique: protein-binding microarray
Form: double-stranded DNA, one strand shown
Medium: in vitro
Tested at: 2200 nM top
Setting: 60-bp whole probe
Together with: salmon DNA 0.4 mg/ml
Baseline: random background probes
Direction: higher = stronger binding
Constant ends, left off below: GCCTAGCAC … GTCTTGATTCGCTTGACGCTGCTG
| Sequence | fitted relative affinity [z-score] |
| --- | --- |
| GACGGTTTCGGGACTGTGGACGTGCTA | 3.9 |
| GACGGTTTCGGTCTCGGGCCGTGCTAG | 6.42 |
| GACGATCTCAAACTGGAGACGTGCTAG | -0.123 |
| GACGAACTGAGGTATCGAGACGTGCTA | -0.422 |
| GTCGGTATCGGGTTTCGGGACGTGCTA | 2.24 |
| TTAGGTTTCGACTATGGGTTAGTGCTA | 2.78 |
| TTAGATTTCAGAATCGATTAGTGCTAG | 0.672 |

Study 2
Target: Ras GTPase-activating protein-binding protein 1, RRM domain (G3BP1, Homo sapiens, UniProt Q13283)
UniProt Q13283, sequence (whole entry, looked up): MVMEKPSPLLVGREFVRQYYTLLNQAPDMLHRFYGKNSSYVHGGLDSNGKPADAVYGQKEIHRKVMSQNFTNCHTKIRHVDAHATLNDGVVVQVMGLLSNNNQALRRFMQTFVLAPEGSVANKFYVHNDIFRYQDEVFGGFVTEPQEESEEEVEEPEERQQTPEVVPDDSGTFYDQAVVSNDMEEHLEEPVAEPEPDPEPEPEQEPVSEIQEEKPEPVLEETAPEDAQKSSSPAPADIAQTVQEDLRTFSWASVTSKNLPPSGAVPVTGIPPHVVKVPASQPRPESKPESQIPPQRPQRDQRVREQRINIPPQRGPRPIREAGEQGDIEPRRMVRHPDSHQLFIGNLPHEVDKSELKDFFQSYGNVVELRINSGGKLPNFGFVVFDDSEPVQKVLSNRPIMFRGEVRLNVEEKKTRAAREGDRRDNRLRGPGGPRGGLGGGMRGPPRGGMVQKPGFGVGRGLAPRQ
Technique: RNA Bind-n-Seq
Form: RNA
Medium: in vitro
Tested at: 1 µM
Setting: whole 134-nt RNA, ends assumed
Together with: 150 mM KCl
Baseline: input library
Direction: higher = stronger binding
Constant ends, left off below: GGGAGUUCUACAGUCCGACGAUC … UGGAAUUCUCGGGUGUCAAGG
| Sequence | log2 enrichment |
| --- | --- |
| CACAGACAACACGCACCCACACAGGCACAGAGGGAAGGGGUUGGGAUGGGGACAGGGUGCACAGCAGGGCGGGGUAGGACCCCAGCCCCU | -0.0634 |
| AGUCCUGUGCUACACAUCGUAUGUACCGAAUCAAACCCAAAUUUAAAUUUUUUUAAAAAAGUAUUAUGUUACGCCGUUCGGAUCUGCACU | -0.843 |
| AGUCCUGUGCUACACAUCGUAUGUACCGAAUCGGGUGGGAAAAAGGGUUUUUUUGGGAAAGUAUUAUGUUACGCCGUUCGGAUCUGCACU | 0.503 |
| AGUCCUGUGCUACACAUCGUAUGUACCGAAUCGGUUUUUUUGGUUUGGUUUUUUUGGAAAGUAUUAUGUUACGCCGUUCGGAUCUGCACU | -0.417 |
| CUGUGCUACACAUCGUAUGUACCGAAUCGGGGAAAAAGGGGUUUUUUUGGGGAAAAAGGGGAAAGUAUUAUGUUACGCCGUUCGGAUCUG | 0.824 |

Study 3
Target: Histone acetyltransferase KAT6A, winged helix 2, GST fusion (KAT6A, Homo sapiens, UniProt Q92794, residues 85-181)
Technique: protein binding microarray
Form: double-stranded DNA, one strand shown
Medium: in vitro
Tested at: not given
Setting: 8-mer, flanks averaged, mean of 2 arrays, mostly near background
Baseline: not given
Direction: higher = stronger binding
Residues (chain): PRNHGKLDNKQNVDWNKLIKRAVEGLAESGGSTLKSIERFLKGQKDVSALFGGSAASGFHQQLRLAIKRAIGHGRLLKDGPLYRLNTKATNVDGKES
| Sequence | E-score |
| --- | --- |
| GCCAGTGA | -0.0385 |
| ATTATCAG | 0.00015 |
| ATAAGTGG | -0.106 |
| ATCGGTGA | 0.0488 |
| ACCGTCGC | 0.2 |
| CAAGGTAC | -0.0967 |
| CATAAGCA | 0.117 |

Other studies, line by line
| Substance | target | test | system | conditions | how to read | measurement | value |
| --- | --- | --- | --- | --- | --- | --- | --- |
| PhoQ, residues 284 288 289 292 302 303 SNSSNI | PhoP, residues 12 14 15 18 19 LWHCS (Escherichia coli, UniProt P23836) | Sort-seq, refers to: YFP reporter | E. coli | PhoQ-PhoP variant library, together with: 10 µM Mg2+ | baseline: high Mg2+ state, higher = stronger signaling | fold induction | 4.71 and 6.91 |

Excerpt of the above (study 2):
| Sequence | log2 enrichment |
| --- | --- |
| AGUCCUGUGCUACACAUCGUAUGUACCGAAUCGGGUGGGAAAAAGGGUUUUUUUGGGAAAGUAUUAUGUUACGCCGUUCGGAUCUGCACU | 0.503 |
| AGUCCUGUGCUACACAUCGUAUGUACCGAAUCGGUUUUUUUGGUUUGGUUUUUUUGGAAAGUAUUAUGUUACGCCGUUCGGAUCUGCACU | -0.417 |
| CUGUGCUACACAUCGUAUGUACCGAAUCGGGGAAAAAGGGGUUUUUUUGGGGAAAAAGGGGAAAGUAUUAUGUUACGCCGUUCGGAUCUG | 0.824 |
